Earlier results that unrelated publications cite.
Numbers after ± are the reported error. In brackets after ≈: the same amount, converted by molar mass.

| Structure (SMILES) | tested on | assay | system | setting | scale | measurement | value |
| --- | --- | --- | --- | --- | --- | --- | --- |
| COc1ccn2c(c1)nc1c2c(=O)[nH]c(=O)n1Cc1ccccc1 | Adenosine receptor A2a (ADORA2A, Homo sapiens, UniProt P29274) |  |  | 10 µM, added: [3H]ZM241385 |  | radioligand displacement | 10% |
| Nc1cc(C(F)(F)F)c(-c2nc(N3CCOCC3)nc(N3CCOCC3)n2)cn1 | Phosphatidylinositol 4-kinase beta (PI4KB, Homo sapiens, UniProt Q9UBF8) | KinomeScan competition binding |  | 10 µM |  | remaining binding | 95% |
| Nc1cc(C(F)(F)F)c(-c2nc(N3CCOCC3)nc(N3CCOCC3)n2)cn1 | Serine/threonine-protein kinase B-raf (BRAF, Homo sapiens, UniProt P15056) | enzyme activity |  | 10 µM | baseline: untreated | remaining activity | 75% |
| COc1ccc2[nH]cc(CCNC(C)=O)c2c1 | Melatonin receptor type 1A (MTNR1A, Homo sapiens, UniProt P48039) |  |  | historical reference value |  | Hill coefficient | 0.7 |
| CNC(C)C1CCC(N)C(OC2C(N)CC(N)C(OC3OCC(C)(O)C(NC)C3O)C2O)O1 (centres unmarked) | Acinetobacter baumannii |  | clinical isolate RKI-No_377/15 |  |  | MIC | 2 mg/L (≈ 4.19 µM) |
| CC[C@H]1OC(=O)[C@H](C)[C@@H](O[C@H]2C[C@@](C)(OC)[C@@H](O)[C@H](C)O2)[C@H](C)[C@@H](O[C@@H]2O[C@H](C)C[C@H](N(C)C)[C@H]2O)[C@](C)(O)C[C@@H](C)C(=O)[C@H](C)[C@@H](O)[C@]1(C)O | Cytochrome P450 3A4 (CYP3A4, Homo sapiens, UniProt P08684) | substrate |  | concentration not given |  | Km | 70 µM |
| C[S+](CC[C@H](N)C(=O)[O-])C[C@H]1O[C@@H](n2cnc3c(N)ncnc32)[C@H](O)[C@@H]1O (some centres unmarked) | DNMT1 | substrate |  | added: near-saturating dI-dC oligo |  | Km | 2.7 µM |
| CO[C@@H]1O[C@H](CO)[C@H](O)[C@H](O)[C@H]1O | PA-I galactophilic lectin (lecA, Pseudomonas aeruginosa, UniProt Q05097) | ITC |  |  |  | -ΔH | 39 kJ/mol |
| C=CC(=O)N1CCC(C(=O)NCC(=O)N2CCN(c3nc(-c4cnc(N)nc4C(F)F)nc(N4CCOCC4)n3)CC2)CC1 | Phosphatidylinositol 4,5-bisphosphate 3-kinase catalytic subunit alpha isoform (PIK3CA, Homo sapiens, UniProt P42336, E545A) | kinase activity |  | 1 µM |  | remaining activity | 0.5% |
| NCCc1c[nH]c2ccc(O)cc12 | 5-HT2A receptor Y7.43A |  |  | concentration not given | baseline: wild type receptor | efficacy reduction | 10 fold |
| O=C(Nc1nc2ccccc2[nH]1)c1ccccc1 | luciferase |  |  | PubChem AID 773 |  | activity | 0.2 µM |
| Cc1cc(NC(=O)c2cccc(NC(=O)/C=C/CN(C)C)c2)ccc1Nc1nccc(-c2cccnc2)n1 | Myosin light chain kinase 2, skeletal/cardiac muscle (MYLK2, Homo sapiens, UniProt Q9H1R3) | enzyme activity, inhibitor |  | 1 µM | baseline: vehicle | remaining activity | 13% |
| Cc1nc(NC(=O)N2CCC[C@H]2C(N)=O)sc1-c1ccnc(C(C)(C)C(F)(F)F)c1 | Phosphatidylinositol 4,5-bisphosphate 3-kinase catalytic subunit gamma isoform (PIK3CG, Homo sapiens, UniProt P48736) | KinomeScan competition binding |  | 10 µM |  | remaining binding | 0% |
| CC1(C)S[C@@H]2[C@H](NC(=O)[C@H](N)c3ccccc3)C(=O)N2[C@H]1C(=O)O | Acinetobacter baumannii |  | clinical isolate RKI-No_12/16 |  |  | MIC | > 16 mg/L |
| CCN(c1cc(-c2ccc(CN3CCOCC3)cc2)cc(C(=O)NCc2c(C)cc(C)[nH]c2=O)c1C)C1CCOCC1 | Histone-arginine methyltransferase CARM1 (CARM1, Homo sapiens, UniProt Q86X55) | enzyme activity, inhibitor |  | 1 µM |  | inhibition | 5 ± 3% |
| C[C@]12CCC(=NOCCN)C[C@@H]1C(=O)C[C@@H]1[C@@H]2CC[C@]2(C)C(=O)CC[C@@H]12 | SERCA2a |  |  | concentration not given |  | ATPase activity | no effect |
| CC(C)C[C@@H](C(=O)N[C@H](C(=O)OC1CCCC1)c1ccccc1)[C@H](O)C(=O)NO | Aminopeptidase N (ANPEP, Homo sapiens, UniProt P15144) | enzyme activity |  | 10 µM |  | inhibition | 82.9% |

Excerpt of the above:
| Structure (SMILES) | tested on | assay | system | setting | scale | measurement | value |
| --- | --- | --- | --- | --- | --- | --- | --- |
| CCN(c1cc(-c2ccc(CN3CCOCC3)cc2)cc(C(=O)NCc2c(C)cc(C)[nH]c2=O)c1C)C1CCOCC1 | Histone-arginine methyltransferase CARM1 (CARM1, Homo sapiens, UniProt Q86X55) | enzyme activity, inhibitor |  | 1 µM |  | inhibition | 5 ± 3% |
| C[S+](CC[C@H](N)C(=O)[O-])C[C@H]1O[C@@H](n2cnc3c(N)ncnc32)[C@H](O)[C@@H]1O (some centres unmarked) | DNMT1 | substrate |  | added: near-saturating dI-dC oligo |  | Km | 2.7 µM |
| CNC(C)C1CCC(N)C(OC2C(N)CC(N)C(OC3OCC(C)(O)C(NC)C3O)C2O)O1 (centres unmarked) | Acinetobacter baumannii |  | clinical isolate RKI-No_377/15 |  |  | MIC | 2 mg/L (≈ 4.19 µM) |
